# Experimental data of several laboratories.
# A part holds a random share of what one study measured.

# Block 1
# Target: Sal-like protein 4, full length isoform B (SALL4, Homo sapiens, UniProt Q9UJQ4-2, residues 1-616)
# Technique: universal PBM
# Form: double-stranded DNA, one strand shown
# Matrix: in vitro
# Tested at: not given
# Setting: 8-mer, flanks averaged, mean of replicates
# Direction: higher = stronger binding
Sequence,E-score
CCCCAGTA,-0.0328
AAAACTCC,0.0323
CCACAGCC,-0.299
CGCATTCC,-0.269
TCATCGCA,0.102
AACGCACC,-0.125
GCCGGTCC,-0.475
CTAATACC,0.0644
ACCAGCAA,0.0207
CTGTTTGA,0.0763
GGACCCGA,-0.223
ACCACGTA,-0.0534
GACCCCGA,-0.173
GGATAAGA,0.0306
AAGCATGC,0.0288
GCTGCTCA,-0.177
CGAGTATC,-0.109
AAAGTGCC,-0.14
ATGAGCTC,-0.11
CACGTGAA,0.0764
ACGGTAAA,0.132

# Block 2
# Target: RNA binding protein fox-1 homolog 2, RRM domain, GST-SBP tag (RBFOX2, Homo sapiens, UniProt O43251-10, residues 100-194)
# Technique: RNA Bind-n-Seq
# Form: RNA
# Matrix: in vitro
# Tested at: 365 nM
# Setting: natural RNA segment, single round, ends assumed
# Reference: no-protein control
# Direction: higher = stronger binding
# Shared flanks, not repeated: GGGAGUUCUACAGUCCGACGAUC … UGGAAUUCUCGGGUGCCAA
# Construct (chain): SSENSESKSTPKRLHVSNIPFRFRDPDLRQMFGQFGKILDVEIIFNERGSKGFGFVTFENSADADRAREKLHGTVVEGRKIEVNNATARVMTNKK
Sequence,RBNS enrichment (R)
CAUUCCAAAGUGCAUCAGAACUGUCAUUCCCUUCUAAUAUCUUCUCAGGAGUAAUACAAAUCAGGUAUUUCAUCAUCAUUUGGUAAUAUGAAAACUCCAGUGAACUCCCA,0.496
AUCUCACGACGAAUAUUCUGAUACAAUACUCAACCUCGGUAUAUAUAUAUGUGUAUAAAUAUAUGUAUAUCCCAGCGGCACUUUAUACUGUUCACUGUACAAAAGCUUAC,0.313
UCACCAAAAUGAGCCUCAUCCCUUUAUGCAACACAUAACCUUACUGAGGGAGGGAAAUACAGAAGCCACCUUUUUAUUUCUCUUCACUGUGUACAAGUUCACUUGUUGUC,0.261
AAUGGCUGUAAGUUAUGAUAAGGAAAUGUACUGAUUGCCAGUGCACUCCACCCUCAUUACGUCACCAGGACUUGAAGCCAAGGGUUAAGAGGGCAAGCUAUGACAUGGGU,0.343
UAAAUAGAAAGUUAGCUGUUCCGCAGACAGGCGUAGUCUUGAGUGUCCUGUGUGGUCAGUGGCAGUGCUAUUCUGAGCUCUGUAGAUGCUUACAAUGUCAGUAUUUGGGA,2
GGUUAUGCAGCUUAAGUUCAGUCUUCUUUAUGCUGCGAUUGAUUUCCACCUCAGUGGCUUAGCCUUUGGGACAGUGGAUACUGCAACAGCCAAGAACUCUUGGUUAUCCG,0.226
GGGUGCUGUCUGCCACUUGCUCCCUGCCAACUUUCUGGAGAGGUGCCAAACUUGGUGUGGCCAGGAAAGGGCAGUCCUGAGGGAGAAGACAGGAUUCAGGGCAGUGCUCC,0.397
CCUUGGAGAUAUCGAAGUAUGGGAUCAAGCUGAGAAAGAACUUGAAAACAGUCUGAAUGAAUUUGGUGAAAAGUGGGAGUUAAACUCUGGAGAUGGAGCUUUCUAUGGCC,1.68
AUGGGCUUUCUUCACCUGCUCUAGGUGCAAAGGCAUGUUGGGAAAGAGAUGGAUGUUGGGGAGGAAGAGAGGAGAUGGAUUUCAGUUGGGAGUUAGGAGGAGAGUAGGUG,6.82
AUGUUUGUGCUUUCUCUGGCCCGUGAACACCUCGGCGAUUCUGUUAGGGAUGGGAUGAGUGGGAGGAAGCCCUUUGAGAAGGGGGAGCCGGCCCUGUCAUGCGCAGGUUU,0.351
CUGUUUUCUGGCAGGUGCCCUCCUUGGAAACUGGUUUUGGCUCUGAUCAGCGGUUCUUUUUGCAGCAAAGCCUGCAUCUGUGUUGACUUGCAAGAUUUUGCGUUUAUUCA,0.47
GUGGAAAGCAAGCCGAGGUGUAAACUGCUGUACAUAGCUUGAAGAAAUACAAAUGAAGUCACGUUUCCUGAGCAGUUUUUCUGAGUCUCAAACUAGGAACAAAUUCUGAG,0.399

# Block 3
# Target: Interferon regulatory factor 7, full length, phosphomimetic (IRF7, Homo sapiens, UniProt Q92985, residues 1-503, S471D/S472D/S475D/S476D/S477D/S483D/S484D/S487D)
# Technique: protein-binding microarray
# Form: double-stranded DNA, one strand shown
# Matrix: in vitro
# Tested at: 2200 nM top
# Setting: 60-bp whole probe
# Together with: salmon DNA 0.4 mg/ml
# Reference: random background probes
# Direction: higher = stronger binding
# Shared flanks, not repeated: GCCTAGCAC … GTCTTGATTCGCTTGACGCTGCTG
# Target sequence (chain): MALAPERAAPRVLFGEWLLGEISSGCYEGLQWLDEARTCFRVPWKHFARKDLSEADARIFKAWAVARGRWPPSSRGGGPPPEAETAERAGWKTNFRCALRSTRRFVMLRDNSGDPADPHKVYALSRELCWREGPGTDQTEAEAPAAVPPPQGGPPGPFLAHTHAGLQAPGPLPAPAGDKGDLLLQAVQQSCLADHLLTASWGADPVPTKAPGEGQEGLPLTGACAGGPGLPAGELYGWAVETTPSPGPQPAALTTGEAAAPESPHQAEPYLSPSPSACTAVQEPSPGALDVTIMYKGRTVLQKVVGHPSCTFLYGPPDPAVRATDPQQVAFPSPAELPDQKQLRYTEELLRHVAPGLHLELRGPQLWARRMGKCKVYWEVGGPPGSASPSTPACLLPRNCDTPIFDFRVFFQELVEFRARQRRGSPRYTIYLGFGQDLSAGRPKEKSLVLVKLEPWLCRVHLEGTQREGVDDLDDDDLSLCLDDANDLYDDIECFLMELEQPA
Sequence,fitted relative affinity [z-score]
GACGGTATCCTGATCCTGACGTGCTAG,0.777
TTAGGGTTCCTTTCCCTTTAGTGCTAG,2.67
GACGGTTTCGGTATCCGGACGTGCTAG,9.35
TTAGGTGCCCTTTTCCTTTAGTGCTAG,1.16
TTAGGTTTCGGTTCCGATTAGTGCTAG,10.2
TTAGAACTGGGGAGTGGATTAGTGCTA,-0.319
GACGAACTGAGTATCGAGTCGTGCTAG,0.325
GACGATCTCAGTTTTGAGACGTGCTAG,0.53
TTAGATCTTAGTATCGATTAGTGCTAG,0.285
GACTAACTGAGTCTCGAGACGTGCTAG,-0.0267
GACGGTATCGACTACCGGGACGTGCTA,-0.207
GACGAACTGAGTAGCGAGACGTGCTAG,-0.406
TTAGAACTTAGTCTCGATTAGTGCTAG,-0.08
GAAGTAATTTCAAACCACAGGTGCTAG,-0.879
TCACTAATGTTTTTTAAACTGTGCTAG,0.355
TTAGAATTCGGGACTGGATTAGTGCTA,-0.534
TTAGGTACCGGGTTTCGGTTAGTGCTA,3.73
TTAGGTTCCGGTTTCGGTTAGTGCTAG,8.68
TTAGGTTTCGGGACTGGGCTAGTGCTA,3.11
GACGGTTCAGGTTTCGGGACGTGCTAG,2.56
TTGAGTCTTCTCCTCTAGGTGTGCTAG,0.582
GACGGACAGGGGTATCGGGACGTGCTA,-0.883
TTAGGTTCCGATTTCGGTTAGTGCTAG,4.71
CTCTTTTTGCTTTCTTTTATGTGCTAG,3.44
GACGAACTGAGCCTCGAGACGTGCTAG,-0.143

# Block 4
# Target: Histone acetyltransferase KAT6A, winged helix 1, GST fusion (KAT6A, Homo sapiens, UniProt Q92794, residues 1-85)
# Technique: protein binding microarray
# Form: double-stranded DNA, one strand shown
# Matrix: in vitro
# Tested at: not given
# Setting: 8-mer, flanks averaged, mean of 2 arrays, mostly near background
# Reference: not given
# Direction: higher = stronger binding
# Construct (chain): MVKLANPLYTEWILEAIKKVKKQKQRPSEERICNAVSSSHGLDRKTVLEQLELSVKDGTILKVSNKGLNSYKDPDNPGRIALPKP
Sequence,E-score
CATTGAGA,0.064
CGCTCTAC,0.177
CCCGATAG,0.131
CAATTTCC,0.0307
ATGTCATG,-0.187
ATGATGCG,0.192
TATGCCGA,0.257
CTCCCCAA,-0.144
ACCGCTCA,0.229
GATAATCC,0.00346
GGAATTAC,0.0716
CTGGTCAA,-0.165
GAGCTCGC,0.0786
GTTAACGA,-0.0209
CACTTCCG,0.122
ATTGTCGG,0.141
CTCATTTA,-0.22
TCTGGGAA,-0.228
GAACATGA,-0.066
CCAGCGAC,0.0474
ACAGATCT,-0.0674
ACAGATGA,-0.279
CGCTGAGA,0.142

# Some of these lines once more (block 3):
Sequence,fitted relative affinity [z-score]
GACGGTATCGACTACCGGGACGTGCTA,-0.207
GACGAACTGAGTAGCGAGACGTGCTAG,-0.406
TTAGAACTTAGTCTCGATTAGTGCTAG,-0.08
GAAGTAATTTCAAACCACAGGTGCTAG,-0.879
TCACTAATGTTTTTTAAACTGTGCTAG,0.355
TTAGAATTCGGGACTGGATTAGTGCTA,-0.534
TTAGGTACCGGGTTTCGGTTAGTGCTA,3.73
TTAGGTTCCGGTTTCGGTTAGTGCTAG,8.68
TTAGGTTTCGGGACTGGGCTAGTGCTA,3.11
GACGGTTCAGGTTTCGGGACGTGCTAG,2.56
TTGAGTCTTCTCCTCTAGGTGTGCTAG,0.582
